Experimental data collected from several papers.
Lines come from different studies, so protocols differ. Several values in a cell are separate wells, animals, samples, runs or records. Numbers after ± are the reported error.
FFAR4: Free fatty acid receptor 4 (FFAR4, Homo sapiens, UniProt Q5NUL3)
TRPM8: Transient receptor potential cation channel subfamily M member 8 (TRPM8, Homo sapiens, UniProt Q7Z2W7)
NADH dehydrogenase [ubiquinone] iron-sulfur protein 7, mitochondrial/NADH dehydrogenase [ubiquinone] iron-sulfur protein 2, mitochondrial/MT-ND1: NADH dehydrogenase [ubiquinone] iron-sulfur protein 7, mitochondrial/NADH dehydrogenase [ubiquinone] iron-sulfur protein 2, mitochondrial/MT-ND1 (Homo sapiens, UniProt O75251+O75306+P03886)
Kir3.1/Kir3.2: Kir3.1/Kir3.2 (Homo sapiens, UniProt P48051+P48549)
GAP50: Glideosome-associated protein 50 (GAP50, Plasmodium falciparum, UniProt Q8I2X3)
Nuclear receptor subfamily 4 group A member 2 LBD: Nuclear receptor subfamily 4 group A member 2, LBD (Homo sapiens, UniProt P43354)
Maoa: Amine oxidase [flavin-containing] A (Maoa, Rattus norvegicus, UniProt P21396)
T1: riboswitch RNA yjdF aptamer (Bacillus subtilis); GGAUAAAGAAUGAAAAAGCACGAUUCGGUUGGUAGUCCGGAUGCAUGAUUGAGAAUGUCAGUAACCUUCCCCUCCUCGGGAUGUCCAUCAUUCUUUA

`CN1CCN(c2cc(-c3ccncc3)c(-c3ccc4ccccc4c3)nn2)CC1` gave an activation of 10.6% (Glucagon receptor (GCGR, Homo sapiens, UniProt P47871); agonist, FLIPR; 12.5 µM).
Under SERCA1 inhibition, `CC(C)(c1cc(N)c(O)c(N)c1)c1cc(N)c(O)c(N)c1` is recorded as “inactive” (Sarcoplasmic/endoplasmic reticulum calcium ATPase 1 (ATP2A1, Oryctolagus cuniculus, UniProt P04191); ATPase activity; rabbit microsomes; concentration not given, pH 7.3, together with: ATP 5 mM).
`O=c1cc(N2CCC(Cc3ccccc3)CC2)[nH]c(=O)[nH]1` has an agonist effect of 0 ± 1% (FFAR4; agonist, β-arrestin recruitment; CHO cells; 10 µM; baseline: 30 µM TUG-891).
`c1coc(-c2n[nH]cc2-c2ccnc3ccccc23)c1` — result for “log2 fold change”: -0.44 (Serine/threonine protein kinase YCK2 (YCK2, Candida albicans, UniProt A0A1D8PKB4); kinase binding, MIB/MS competition; Candida albicans lysate; 1 µM; baseline: DMSO, negative = stronger binding).
With `CC[C@@H]1[C@H](F)C(=O)N[C@@H]1COc1nccc2cc(C(N)=O)c(OC)cc12` the inhibition was -8.3% (Ribosomal protein S6 kinase alpha-1 (RPS6KA1, Homo sapiens, UniProt Q15418); ATP probe binding, KiNativ profiling, refers to: domain 2 Lys2 site; THP-1 cell lysate; 0.01 mM).
With `O=C1NC(=O)/C(=C/c2ccc3nccnc3c2)S1` the remaining activity was 110 ± 8.03% (TRPM8; antagonist; HEK293; 5 µM; baseline: control).
`Cc1cc2c(c(=O)[nH]1)C(=O)O/C2=C\c1ccccc1OC(C)C` gave a ligand efficiency of 0.39 (Dual specificity calcium/calmodulin-dependent 3',5'-cyclic nucleotide phosphodiesterase 1C, isoform PDE1C2 (PDE1C, Homo sapiens, UniProt Q14123); enzyme activity, inhibitor; together with: 3H-cGMP substrate).
`O=c1nc(SCc2cc(F)cc(C(F)(F)F)c2)nc(SCc2ccc3sccc3c2)[nH]1`: “ATP hydrolysis rate” 2.16 µM/min and 2.29 µM/min (DNA topoisomerase 2-alpha (TOP2A, Homo sapiens, UniProt P11388); ATPase activity; 3.9 µM, together with: ATP 1 mM).
The remaining activity of `COc1cc(Nc2ncc3c(n2)-c2ccc(Cl)cc2C(c2c(F)cccc2OC)=NC3)ccc1C(=O)O` is reported as 110% (MAP4K5; kinase activity; 1 µM).
`NC(=O)NOCCCCCCCCCCCCCC[P+](c1ccccc1)(c1ccccc1)c1ccccc1.O=C([O-])C(F)(F)F` — result for “oxygen consumption rate”: 53.5 ± 3.18% (NADH dehydrogenase [ubiquinone] iron-sulfur protein 7, mitochondrial/NADH dehydrogenase [ubiquinone] iron-sulfur protein 2, mitochondrial/MT-ND1; complex I-dependent respiration, Seahorse XF96; HCT-116; 1 µM, 24 h; baseline: control).
Under “activation slope factor”, `CCN(CCO)CCCC(C)Nc1ccnc2cc(Cl)ccc12` (stereo not shown) is recorded as 2.85 mV/e-fold and 4.5 mV/e-fold and 1.66 mV/e-fold (Sodium channel protein type 5 subunit alpha (SCN5A, Homo sapiens, UniProt Q14524); sodium current, whole-cell patch clamp; 30 µM, without ATX-II).
`O=C(COc1ccc(Cl)cc1Cl)Nc1cc(C2CCC2)nn1CC(F)(F)F` gave an Emax of < 10% (Kir3.1/Kir3.2; thallium flux, activator; HEK293; baseline: standard compound).
With `O=C(ON1C(=O)CCC1=O)c1cc(C(F)(F)F)cc(C(F)(F)F)c1` the kobs was 0.163 min⁻¹ (CD209 antigen (CD209, Homo sapiens, UniProt Q9NNX6); covalent labelling, intact protein MS; 50 µM).
With `C[C@@H](c1cc(Cl)cc(Cl)c1)N(C)c1ncc2c(N)nc(N)nc2n1` the koff was 6.17e-06 s⁻¹ (GAP50; binding, surface plasmon resonance; 1:1 binding model).
Under “remaining kinase activity”, `COCCNc1nc2ccc(C#CC3(O)CCCCC3)cc2n1-c1ccnc(N)n1` is recorded as 14.9% (Serine/threonine-protein kinase PAK 2 (PAK2, Homo sapiens, UniProt Q13177); enzyme activity, inhibitor, Z'-LYTE; 1 µM; baseline: no-inhibitor control).
`Oc1ccc(/C=C/c2cc(O)cc(O)c2)cc1` gave a kon increase of 8.4 fold (O-methyltransferase (Sorghum bicolor, UniProt A0A1B6PFV1); biolayer interferometry; together with: saturating sinefungin; baseline: apo).
`Cc1cc2nc3[nH]c(=O)[nH]c(=O)c3nc2cc1C` has a Kd of 360 nM (T1, riboswitch RNA yjdF aptamer (Bacillus subtilis); fluorescence titration; together with: 380 nM lumichrome).
With `O=c1cc(NCCc2cccc(Cl)c2)[nH]c(=O)[nH]1` the agonist effect was 1 ± 1% (FFAR4; agonist, β-arrestin recruitment; CHO cells; 10 µM; baseline: 30 µM TUG-891).
Under “G-V slope factor”, `c1ccc(C(NCc2cccnc2)(c2ccccc2)c2ccccc2)cc1` is recorded as 28 ± 3 mV (Potassium voltage-gated channel subfamily KQT member 1, with KCNE1 (KCNQ1, Homo sapiens, UniProt P51787); IKs activation; 100 pM, with KCNE1).
The ΔH of `Nc1ncnc2c1ncn2[C@@H]1O[C@H](COP(=O)(O)OP(=O)(O)O)[C@@H](O)[C@H]1O` is reported as -3.25 kcal/mol (GUK1 (Homo sapiens, UniProt Q16774); binding, isothermal titration calorimetry; molar ratio 0.09853, fitted curve).
For `CC(=C/C(=O)O)/C=C/C=C(\C)C1C=C2C(C)(C)CCCC2(C)O1` (stereo not shown), “plasma membrane localization” read 0.87 (Rhodopsin (RHO, Homo sapiens, UniProt P08100, E181K); immunostaining, refers to: opsin; COS-7 transfected; 20.00 µM, unit not given; baseline: surface over total stained cells).
`NC(=O)NO` — result for “oxygen consumption rate”: 80.2 ± 10.8% (NADH dehydrogenase [ubiquinone] iron-sulfur protein 7, mitochondrial/NADH dehydrogenase [ubiquinone] iron-sulfur protein 2, mitochondrial/MT-ND1; complex I-dependent respiration, Seahorse XF96; HCT-116; 1000 µM, 24 h; baseline: control).
The Ki ratio of `O=C(c1ccccc1)c1ccc(CNCCCN2C(=O)c3ccccc3C2=O)cc1` is reported as < 0.03 (Sigma intracellular receptor 2 (TMEM97, Homo sapiens, UniProt Q5BJF2); radioligand binding; RT-4 cell membranes; baseline: sigma1 Ki over sigma2 Ki).
For `O=S(=O)(O)C1CCNCC1`, “normalised MST signal” read -0.0308 (Sodium- and chloride-dependent taurine transporter (SLC6A6, Homo sapiens, UniProt P31641, Y138A); binding, microscale thermophoresis; 61 nM, room temperature, together with: 50 nM labelled protein; higher = more binding).
The Hill slope of `N#Cc1c(N)nc(-c2ccccc2)nc1C(F)(F)F` is reported as 1.6 (3-oxoacyl-[acyl-carrier-protein] reductase FabG (fabG, Pseudomonas aeruginosa, UniProt O54438); enzyme activity, inhibitor, NADPH fluorescence; reverse reaction, together with: 3-OH-decanoyl-NAC, NADP).
`COC(=O)c1cn(C)c2ccc(-c3cccnc3)cc12` has an activation of 0.32 fold (Nuclear receptor subfamily 4 group A member 2 LBD; reporter gene, Gal4 hybrid reporter; 10 µM; baseline: vehicle).
`Nc1nc2c(ncn2[C@@H]2O[C@H](COP(=O)(O)O)[C@@H](O)[C@H]2O)c(=O)[nH]1` has a reaction rate of 1.05 s⁻¹ and 1.04 s⁻¹ and 0.692 s⁻¹ (GUK1 (Homo sapiens, UniProt Q16774, Y81A); enzyme activity, NADH-coupled; 7.812 µM).
The agonist effect of `O=c1cc(NCCCc2ccccc2)[nH]c(=O)[nH]1` is reported as 1% (FFAR4; agonist, β-arrestin recruitment; CHO cells; 10 µM; baseline: 30 µM TUG-891).
The kcat of `NCc1ccc(F)cc1` is reported as 0.983 ± 0.014 s⁻¹ (Maoa; substrate; rat; pH 9.0, α,α-protio substrate).
`C[S+](C)CCC(=O)[O-]` has a thermal shift of 13.2 °C (uncharacterized protein (Pelagibacter ubique, UniProt Q4FKZ8); differential scanning fluorimetry; Candidatus Pelagibacter ubique; in-house screen).
`NC(=O)NOCCCCCCCCCCCCCCCC[P+](c1ccccc1)(c1ccccc1)c1ccccc1.O=C([O-])C(F)(F)F` — result for “oxygen consumption rate”: 43 ± 3.82% (NADH dehydrogenase [ubiquinone] iron-sulfur protein 7, mitochondrial/NADH dehydrogenase [ubiquinone] iron-sulfur protein 2, mitochondrial/MT-ND1; complex I-dependent respiration, Seahorse XF96; HCT-116; 1 µM, 24 h; baseline: control).
`NCCN(C(=O)c1ccc(Cl)cc1Cl)c1ccc(OCc2ccc(Cl)cc2)cc1` gave a koff of 0.0486 s⁻¹ (GAP50; binding, surface plasmon resonance; 1:1 binding model).
`CCCCCCN(C)c1cc(=O)[nH]c(=O)[nH]1` gave an activation of 1% (FFAR4; agonist, β-arrestin recruitment; CHO cells; 10 µM).
For `C[S+]([O-])c1ccc(-c2nc(-c3ccc(F)cc3)c(-c3ccncc3)[nH]2)cc1` (stereo not shown), the remaining activity was 107 ± 6.3% (TRPM8; antagonist; HEK293; 5 µM; baseline: control).
`O=C(NCc1ccc(CNS(=O)(=O)c2ccccc2)cc1)c1cccnc1` has an EC of 10 nM (C-X-C chemokine receptor type 4 (CXCR4, Homo sapiens, UniProt P61073); binding, inhibitor, competitive binding; MDA-MB-231; together with: biotinylated TN14003).
With `NC(=O)c1cccc(-c2cc(Nc3ccc(OC(F)(F)F)cc3)ncn2)c1` the remaining activity was 99.1 ± 7.21% (TRPM8; antagonist; HEK293; 5 µM; baseline: control).
With `NCc1ccc(C(F)(F)F)cc1` the pKa was 7.5 ± 0.1 (Maoa; kcat pH profile ES complex, substrate; pH 6.5-9.5).
The activation of `CC(C)(C)CCNc1cc(=O)[nH]c(=O)[nH]1` is reported as 1% (FFAR4; agonist, β-arrestin recruitment; CHO cells; 10 µM).
`O=c1c(-c2ccc(F)cc2)c(-c2ccncc2)[nH]n1-c1ccc(Cl)cc1` has a remaining activity of 103 ± 9.98% (TRPM8; antagonist; HEK293; 5 µM; baseline: control).
`O=C(O)C1=CC(=C(c2ccc(O)c(C(=O)O)c2)c2ccc(O)c(C(=O)O)c2)C=CC1=O` has a remaining current of 0.528 ± 0.057 (P2X purinoceptor 3 (P2RX3, Homo sapiens, UniProt P56373); patch clamp; HEK293; 400 nM, unit not given; baseline: baseline).
`COC(=O)c1ccc(NC(=O)COc2ccc(Cl)cc2Cl)s1` — result for activity: “inactive” (Kir3.1/Kir3.2; activator, thallium flux; HEK293; concentration not given).
For `C=CC(=O)N1CCC(COCC(=O)N2CCN(c3nc(-c4cnc(N)nc4C(F)F)nc(N4CCOC[C@@H]4C)n3)CC2)CC1`, the remaining binding was 49% (Receptor-type tyrosine-protein kinase FLT3 (FLT3, Homo sapiens, UniProt P36888, D835V); KINOMEscan; 1 µM).
The degradation of `CN(CCCCCCNC(=O)CNc1cccc2c1C(=O)N(C1CCC(=O)NC1=O)C2=O)Cc1cn(Cc2ccc(C(=O)NO)cc2)c2ccccc12.O=C(O)C(F)(F)F` (stereo not shown) is reported as 94% (Polyamine deacetylase HDAC10 (HDAC10, Homo sapiens, UniProt Q969S8); degrader, western blot; MM1.S; 5 µM, 24 h).
For `O=C(O)CCCCCNc1cc(=O)[nH]c(=O)[nH]1`, the activation was 0% (FFAR4; agonist, β-arrestin recruitment; CHO cells; 10 µM).
The koff of `CO[C@H]1/C=C/O[C@@]2(C)Oc3c(C)c(O)c4c(O)c(c(/C=N/N5CCN(C)CC5)c(O)c4c3C2=O)NC(=O)/C(C)=C\C=C[C@H](C)[C@H](O)[C@@H](C)[C@@H](O)[C@@H](C)[C@H](OC(C)=O)[C@@H]1C` is reported as 0.00308 s⁻¹ (GAP50; binding, surface plasmon resonance; 1:1 binding model).
The agonist effect of `O=c1cc(NCCc2c[nH]c3ccccc23)[nH]c(=O)[nH]1` is reported as 1% (FFAR4; agonist, β-arrestin recruitment; CHO cells; 10 µM; baseline: 30 µM TUG-891).
`CC(C)(C)c1cnc(CSc2cnc(NC(=O)C3CCN(C(=O)CCCCCCCN4Cc5cc6c(cc5C4)C(=O)N(C4CCC(=O)NC4=O)C6=O)CC3)s2)o1` (stereo not shown) — result for “time to CDK9 degradation”: ≤ 2 h (Cyclin-dependent kinase 9 (CDK9, Homo sapiens, UniProt P50750); degrader, Western blot; TC-71; 10 nM).
`COc1ccc([C@@H]2CC(c3cccs3)=NN2C(=O)c2ccco2)cc1OC` gave a koff of 1.22 s⁻¹ (GAP50; binding, surface plasmon resonance; 1:1 binding model).
`Nc1ncnc2c1ncn2[C@@H]1O[C@H](COP(=O)(O)CP(=O)(O)OP(=O)(O)O)[C@@H](O)[C@H]1O` has a specific binding of 163 corrected cpm and 137 corrected cpm and 124 corrected cpm (P2X purinoceptor 1 (P2RX1, Homo sapiens, UniProt P51575, E122A); saturation binding; 13 nM).
`CCCCCCCC(=O)c1c(O)cc(O)cc1CC(=O)OCC` has an activation of 1.11 fold (Nuclear receptor subfamily 4 group A member 2 LBD; reporter gene, Gal4 hybrid reporter; 10 µM; baseline: vehicle).
The GABA current of `COc1cccc(-n2nc3c4cc(Cl)ccc4[nH]cc-3c2=O)c1` is reported as 109 ± 3.3% (Gamma-aminobutyric acid receptor subunit alpha-4/beta-3, with delta subunit (Rattus norvegicus, UniProt P28471+P63079); modulator, two-electrode voltage clamp; α4β3δ receptor; 1 µM, together with: GABA EC3-10; baseline: GABA alone).
The Hill coefficient of `Nc1nc2ccc(F)cc2[nH]1` is reported as 1.06 ± 0.06 (Voltage-gated hydrogen channel 1 (HVCN1, Homo sapiens, UniProt Q96D96); proton current, inhibitor, inside-out patch clamp; Xenopus oocytes; dimeric channel).
